Experimental data collected from several papers.
Each line is one published result; not all experiments were run side by side. Numbers after ± are the reported error.
ALK: ALK tyrosine kinase receptor (ALK, Homo sapiens, UniProt Q9UM73)
Sequence of UniProt Q9UM73 (whole entry, looked up): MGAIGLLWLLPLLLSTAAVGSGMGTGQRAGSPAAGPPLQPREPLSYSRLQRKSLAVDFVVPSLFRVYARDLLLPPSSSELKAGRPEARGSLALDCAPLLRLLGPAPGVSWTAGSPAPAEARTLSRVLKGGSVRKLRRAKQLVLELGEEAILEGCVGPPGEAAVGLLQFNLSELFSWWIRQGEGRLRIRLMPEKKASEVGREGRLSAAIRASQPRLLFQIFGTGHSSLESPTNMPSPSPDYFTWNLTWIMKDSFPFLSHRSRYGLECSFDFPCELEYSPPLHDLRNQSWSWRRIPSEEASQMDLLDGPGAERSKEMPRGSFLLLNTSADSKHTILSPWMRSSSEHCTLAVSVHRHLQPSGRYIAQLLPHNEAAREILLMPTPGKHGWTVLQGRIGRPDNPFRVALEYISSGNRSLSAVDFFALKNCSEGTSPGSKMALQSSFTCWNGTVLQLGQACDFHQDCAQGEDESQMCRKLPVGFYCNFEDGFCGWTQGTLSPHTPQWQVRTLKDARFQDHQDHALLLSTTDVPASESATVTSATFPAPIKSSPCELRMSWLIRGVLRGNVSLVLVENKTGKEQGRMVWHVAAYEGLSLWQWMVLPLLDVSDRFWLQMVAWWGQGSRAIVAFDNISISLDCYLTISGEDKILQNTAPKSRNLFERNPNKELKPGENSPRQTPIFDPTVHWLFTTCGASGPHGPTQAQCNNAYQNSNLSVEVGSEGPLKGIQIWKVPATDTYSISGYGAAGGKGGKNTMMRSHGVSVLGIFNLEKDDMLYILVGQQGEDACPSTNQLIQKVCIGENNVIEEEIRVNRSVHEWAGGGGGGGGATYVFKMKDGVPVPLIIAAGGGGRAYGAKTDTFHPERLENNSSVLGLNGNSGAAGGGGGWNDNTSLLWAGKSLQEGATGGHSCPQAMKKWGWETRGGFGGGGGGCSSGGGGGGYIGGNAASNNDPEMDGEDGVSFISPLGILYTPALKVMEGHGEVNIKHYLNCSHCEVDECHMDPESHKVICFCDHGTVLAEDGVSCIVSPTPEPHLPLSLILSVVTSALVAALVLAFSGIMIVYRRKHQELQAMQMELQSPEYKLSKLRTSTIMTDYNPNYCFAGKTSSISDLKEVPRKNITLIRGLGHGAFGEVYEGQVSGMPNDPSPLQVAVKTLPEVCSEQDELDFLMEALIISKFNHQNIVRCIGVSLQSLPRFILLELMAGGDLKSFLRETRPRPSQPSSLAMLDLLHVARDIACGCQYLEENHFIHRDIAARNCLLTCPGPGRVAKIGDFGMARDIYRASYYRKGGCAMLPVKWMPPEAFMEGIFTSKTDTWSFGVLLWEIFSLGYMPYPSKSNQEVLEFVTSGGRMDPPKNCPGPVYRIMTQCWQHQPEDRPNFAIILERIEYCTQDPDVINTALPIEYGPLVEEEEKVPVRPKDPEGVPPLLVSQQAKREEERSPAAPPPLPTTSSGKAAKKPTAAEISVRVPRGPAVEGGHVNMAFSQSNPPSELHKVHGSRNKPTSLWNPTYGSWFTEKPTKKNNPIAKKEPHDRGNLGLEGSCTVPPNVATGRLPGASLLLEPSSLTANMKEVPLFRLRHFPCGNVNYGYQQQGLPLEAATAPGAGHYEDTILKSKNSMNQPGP
Sequence of UniProt O15264 (whole entry, looked up): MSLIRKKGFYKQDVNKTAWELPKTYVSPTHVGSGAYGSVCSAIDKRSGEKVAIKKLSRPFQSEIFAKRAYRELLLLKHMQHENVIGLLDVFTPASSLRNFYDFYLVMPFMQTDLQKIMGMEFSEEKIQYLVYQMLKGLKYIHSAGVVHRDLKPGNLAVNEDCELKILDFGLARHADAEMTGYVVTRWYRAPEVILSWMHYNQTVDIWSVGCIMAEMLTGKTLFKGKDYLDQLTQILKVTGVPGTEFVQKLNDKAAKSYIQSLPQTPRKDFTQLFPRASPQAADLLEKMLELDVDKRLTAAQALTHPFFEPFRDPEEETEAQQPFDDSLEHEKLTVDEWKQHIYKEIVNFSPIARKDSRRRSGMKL
Sequence of UniProt P21554 (whole entry, looked up): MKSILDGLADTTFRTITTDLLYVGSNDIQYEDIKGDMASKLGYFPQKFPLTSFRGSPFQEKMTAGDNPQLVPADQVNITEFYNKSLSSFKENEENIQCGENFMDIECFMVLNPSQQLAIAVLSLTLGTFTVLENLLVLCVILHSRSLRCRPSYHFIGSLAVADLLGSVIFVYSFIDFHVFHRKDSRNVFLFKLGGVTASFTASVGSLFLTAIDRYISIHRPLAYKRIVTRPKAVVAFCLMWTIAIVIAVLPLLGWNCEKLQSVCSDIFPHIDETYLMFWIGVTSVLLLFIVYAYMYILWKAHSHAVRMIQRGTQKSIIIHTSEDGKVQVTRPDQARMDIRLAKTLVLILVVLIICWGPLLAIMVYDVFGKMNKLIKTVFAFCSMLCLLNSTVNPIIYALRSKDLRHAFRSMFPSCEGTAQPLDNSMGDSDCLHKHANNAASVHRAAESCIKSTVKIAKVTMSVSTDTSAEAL
Sequence of UniProt Q9BYT3 (whole entry, looked up): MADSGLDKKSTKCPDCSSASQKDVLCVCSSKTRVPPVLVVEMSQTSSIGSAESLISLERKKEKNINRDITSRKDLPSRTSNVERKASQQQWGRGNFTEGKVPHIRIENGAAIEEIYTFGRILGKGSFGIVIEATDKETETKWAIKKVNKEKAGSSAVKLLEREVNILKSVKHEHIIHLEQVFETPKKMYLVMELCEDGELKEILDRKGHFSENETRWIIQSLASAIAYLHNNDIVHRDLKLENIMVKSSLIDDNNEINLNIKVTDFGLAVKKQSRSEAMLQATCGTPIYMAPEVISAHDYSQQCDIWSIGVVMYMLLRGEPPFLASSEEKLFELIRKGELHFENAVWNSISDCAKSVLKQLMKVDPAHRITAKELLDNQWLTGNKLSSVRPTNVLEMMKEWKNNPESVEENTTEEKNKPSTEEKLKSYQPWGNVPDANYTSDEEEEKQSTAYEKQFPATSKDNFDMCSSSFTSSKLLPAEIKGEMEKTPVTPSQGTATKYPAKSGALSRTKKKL
Sequence of UniProt Q9NWZ3 (whole entry, looked up): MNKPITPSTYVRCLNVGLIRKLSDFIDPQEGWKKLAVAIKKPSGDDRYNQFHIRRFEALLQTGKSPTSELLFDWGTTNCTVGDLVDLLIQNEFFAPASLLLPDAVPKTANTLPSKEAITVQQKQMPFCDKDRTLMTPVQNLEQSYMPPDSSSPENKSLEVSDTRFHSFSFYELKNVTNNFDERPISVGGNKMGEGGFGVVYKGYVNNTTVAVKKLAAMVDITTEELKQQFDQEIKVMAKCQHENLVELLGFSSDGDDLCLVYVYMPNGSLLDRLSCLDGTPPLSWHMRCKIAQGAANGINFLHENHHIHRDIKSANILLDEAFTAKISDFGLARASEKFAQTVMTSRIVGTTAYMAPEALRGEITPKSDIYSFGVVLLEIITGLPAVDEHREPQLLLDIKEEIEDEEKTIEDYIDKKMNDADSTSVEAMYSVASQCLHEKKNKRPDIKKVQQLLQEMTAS
Sequence of UniProt P33533 (whole entry, looked up): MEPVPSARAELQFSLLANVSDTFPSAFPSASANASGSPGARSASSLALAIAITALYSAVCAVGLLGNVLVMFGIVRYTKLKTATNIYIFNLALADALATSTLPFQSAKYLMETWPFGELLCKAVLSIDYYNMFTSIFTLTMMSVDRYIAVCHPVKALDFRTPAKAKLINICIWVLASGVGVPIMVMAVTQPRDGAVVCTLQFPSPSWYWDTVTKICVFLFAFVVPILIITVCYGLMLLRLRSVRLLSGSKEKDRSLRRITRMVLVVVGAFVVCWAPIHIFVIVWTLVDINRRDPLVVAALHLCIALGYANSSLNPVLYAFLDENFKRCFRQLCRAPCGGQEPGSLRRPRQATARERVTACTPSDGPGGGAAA
Sequence of UniProt P35367 (whole entry, looked up): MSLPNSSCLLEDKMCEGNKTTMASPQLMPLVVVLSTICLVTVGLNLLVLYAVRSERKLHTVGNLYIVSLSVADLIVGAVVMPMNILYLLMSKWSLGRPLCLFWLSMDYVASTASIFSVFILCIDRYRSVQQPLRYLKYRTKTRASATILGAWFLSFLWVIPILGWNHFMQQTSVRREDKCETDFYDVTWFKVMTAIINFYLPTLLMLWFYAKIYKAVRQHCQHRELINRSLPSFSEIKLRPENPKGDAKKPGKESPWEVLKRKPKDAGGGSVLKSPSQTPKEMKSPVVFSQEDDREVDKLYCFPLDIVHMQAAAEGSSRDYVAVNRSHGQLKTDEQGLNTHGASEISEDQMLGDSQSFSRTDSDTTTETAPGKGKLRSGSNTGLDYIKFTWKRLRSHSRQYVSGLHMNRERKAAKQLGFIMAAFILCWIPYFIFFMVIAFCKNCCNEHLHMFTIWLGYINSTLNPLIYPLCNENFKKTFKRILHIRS

SMILES	tested on	test	system	conditions	how to read	quantity	result
O=C(N[C@@H]1c2ccccc2C[C@H]1N1CCCC1)c1ccc(-c2ccnc3[nH]ccc23)nc1	Serine/threonine-protein kinase 33 (STK33, Homo sapiens, UniProt Q9BYT3)	binding, competition with immobilised ligand		3 µM		remaining binding	37%
CCCCC[C@@H]1OC(=O)[C@@H](C)N(C)C(=O)[C@H](CCCCC)OC(=O)[C@@H](C)N(C)C(=O)[C@H](CCCCC)OC(=O)[C@@H](C)N(C)C(=O)[C@H](CCCCC)OC(=O)[C@@H](C)N(C)C1=O	ryanodine receptor 2 (Sus scrofa, UniProt A0A5G2R1W3)	single-channel gating, planar lipid bilayer		3 µM, pCa 7, porcine		closed dwell time constant T2	116 ± 27 ms
CCc1nnc(-c2c(OC)cc(-c3cnc4cc(-c5cnn(C)c5)ccn34)cc2OC)o1	Histamine H1 receptor (HRH1, Homo sapiens, UniProt P35367)	antagonist radioligand, radioligand binding		10 µM, SafetyScreen44 H1 mean	lower = stronger displacement	remaining binding	106%
CS(C)(=O)=Nc1ccc(-c2ccc(-c3nc4cc(O[C@@H]5CO[C@H]6[C@@H]5OC[C@H]6O)[nH]c4cc3F)cc2)cc1	Serine-protein kinase ATM (ATM, Homo sapiens, UniProt Q13315)	enzyme activity, inhibitor		10 µM		inhibition	7%
C=C(c1ccccc1)[C@@H](N)P(=O)(O)O	PAL1 (Petroselinum crispum, UniProt P24481, Y110F)	binding, ITC				ΔG	-9.4 kcal/mol
COC(=O)[C@@H](NC(=O)c1nn(Cc2ccc(F)cc2)c2cc(OCCCCNC(N)=O)ccc12)C(C)(C)C	Cannabinoid receptor 1, with Gi2 (CNR1, Homo sapiens, UniProt P21554)	GTP turnover, agonist, refers to: Gi2 Gα subtype				maximal efficacy	118%
CN(C)[C@H]1C[C@@]23CC[C@@]4(O2)C(=CC[C@]2(C)[C@@H](c5ccc6ccncc6c5)CC[C@H]24)C=C3[C@@H](O)[C@@H]1O	Interleukin-1 receptor-associated kinase 4 (IRAK4, Homo sapiens, UniProt Q9NWZ3)	ATP probe labelling, inhibitor, KiNativ profiling		1 µM		inhibition	9.8%
O=C1NC2(CC2)COc2ncc(F)cc2[C@H]2COCCN2c2ccn3ncc1c3n2			Sprague-Dawley rat, male, thymus	oral, 20 mg/kg/day, 4 weeks dosing, end of recovery		organ-to-body weight ratio	0.09 ± 0.022%
CCCC[C@H]1CNCCN1C[C@@H]1CCCN1C[C@H](CC1CCCCC1)N1CCN(CCC23CC4CC(CC(C4)C2)C3)[C@H]([C@@H](C)O)C1	Delta-type opioid receptor (Oprd1, Rattus norvegicus, UniProt P33533)	radioligand binding	rat brain membranes	500 nM, pH 7.5, 25 °C, with: 2 nM [3H]DPDPE		remaining binding	84.2%
CCOC(=O)[C@@H]1Cc2c(cc([N+](=O)[O-])cc2[N+](=O)[O-])[C@H](O)[C@]12C(=O)Nc1ccc(Br)cc12	ALK	binding, competition with immobilised ligand		0.1 µM		remaining binding	55%
CC(=O)NCC(=O)N[C@@H](CO)C(=O)N[C@@H](CS)C(=O)N[C@@H](CCCNC(=N)N)C(=O)N[C@@H](CCCCN)C(=O)N[C@@H](CCCNC(=N)N)C(=O)N[C@@H](CC(N)=O)C(=O)N[C@@H](CCCNC(=N)N)C(=O)N[C@@H](CO)C(=O)N1CCC[C@H]1C(=O)N[C@@H](CCC(=O)O)C(=O)N[C@@H](CCCNC(=N)N)C(N)=O	WD repeat-containing protein 5 (WDR5, Homo sapiens, UniProt P61964)	binding, competitor of LANA peptide, ITC		pH 7.0, 20 °C, WIN motif peptide		ΔG	-6.54 kcal/mol
C[C@H](NCc1ccc(-c2ccc(C(F)(F)F)cc2)cc1)C(N)=O	Serine/threonine-protein kinase pim-3 (PIM3, Homo sapiens, UniProt Q86V86)	cell-free assay, competition with immobilised ligand		1 µM		inhibition	5%
O=C1NC(=O)c2c1c1cc(F)c[n+]3c1c1c2c2cc(O)ccc2[n]1[Ru-4]312([N]=C=S)[S+]3CC[S+]1CC[S+]2CC3 (stereo not drawn)	ALK	enzyme activity		100 nM, human enzyme, with: 10 µM ATP	baseline: untreated	remaining activity	30%
Cc1cc(Cl)ccc1OC(C)C(=O)N1CCc2ccccc21 (stereo not drawn)	Dihydroorotate dehydrogenase (quinone), mitochondrial (PFF0160c, Plasmodium falciparum, UniProt Q08210, E182D)	enzyme activity, DCIP colorimetric			baseline: E182D mutant over wild type	IC50 ratio	0.1
CC(C)[C@H]1NC(=O)C[C@H]2/C=C/CCSSC[C@@H](NC1=O)C(=O)N[C@H](Cc1cccc3ccccc13)C(=O)NCC(=O)O2	Mitogen-activated protein kinase 13 (MAPK13, Homo sapiens, UniProt O15264)	enzyme activity, inhibitor		10 µM		inhibition	-3.6%
